Experimental data from different studies.
Parts stem from different laboratories: compare values within a part only.
Sequence of UniProt Q9BRS2 (whole entry, looked up): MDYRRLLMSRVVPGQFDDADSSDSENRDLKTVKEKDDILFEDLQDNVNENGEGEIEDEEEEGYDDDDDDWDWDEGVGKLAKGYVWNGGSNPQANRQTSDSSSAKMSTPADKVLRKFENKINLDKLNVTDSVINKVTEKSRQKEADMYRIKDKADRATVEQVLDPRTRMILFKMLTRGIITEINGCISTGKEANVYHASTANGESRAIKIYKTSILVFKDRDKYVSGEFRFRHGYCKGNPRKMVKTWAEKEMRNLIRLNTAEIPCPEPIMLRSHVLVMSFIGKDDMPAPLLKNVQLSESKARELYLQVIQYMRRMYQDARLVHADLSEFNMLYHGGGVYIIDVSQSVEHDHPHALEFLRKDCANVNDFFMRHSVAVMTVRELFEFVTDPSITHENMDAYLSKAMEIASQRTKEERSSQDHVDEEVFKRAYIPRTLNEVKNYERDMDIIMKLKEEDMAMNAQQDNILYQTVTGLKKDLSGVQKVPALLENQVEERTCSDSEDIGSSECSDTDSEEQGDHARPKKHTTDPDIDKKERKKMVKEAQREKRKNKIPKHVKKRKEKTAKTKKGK
Sequence of UniProt P23458 (whole entry, looked up): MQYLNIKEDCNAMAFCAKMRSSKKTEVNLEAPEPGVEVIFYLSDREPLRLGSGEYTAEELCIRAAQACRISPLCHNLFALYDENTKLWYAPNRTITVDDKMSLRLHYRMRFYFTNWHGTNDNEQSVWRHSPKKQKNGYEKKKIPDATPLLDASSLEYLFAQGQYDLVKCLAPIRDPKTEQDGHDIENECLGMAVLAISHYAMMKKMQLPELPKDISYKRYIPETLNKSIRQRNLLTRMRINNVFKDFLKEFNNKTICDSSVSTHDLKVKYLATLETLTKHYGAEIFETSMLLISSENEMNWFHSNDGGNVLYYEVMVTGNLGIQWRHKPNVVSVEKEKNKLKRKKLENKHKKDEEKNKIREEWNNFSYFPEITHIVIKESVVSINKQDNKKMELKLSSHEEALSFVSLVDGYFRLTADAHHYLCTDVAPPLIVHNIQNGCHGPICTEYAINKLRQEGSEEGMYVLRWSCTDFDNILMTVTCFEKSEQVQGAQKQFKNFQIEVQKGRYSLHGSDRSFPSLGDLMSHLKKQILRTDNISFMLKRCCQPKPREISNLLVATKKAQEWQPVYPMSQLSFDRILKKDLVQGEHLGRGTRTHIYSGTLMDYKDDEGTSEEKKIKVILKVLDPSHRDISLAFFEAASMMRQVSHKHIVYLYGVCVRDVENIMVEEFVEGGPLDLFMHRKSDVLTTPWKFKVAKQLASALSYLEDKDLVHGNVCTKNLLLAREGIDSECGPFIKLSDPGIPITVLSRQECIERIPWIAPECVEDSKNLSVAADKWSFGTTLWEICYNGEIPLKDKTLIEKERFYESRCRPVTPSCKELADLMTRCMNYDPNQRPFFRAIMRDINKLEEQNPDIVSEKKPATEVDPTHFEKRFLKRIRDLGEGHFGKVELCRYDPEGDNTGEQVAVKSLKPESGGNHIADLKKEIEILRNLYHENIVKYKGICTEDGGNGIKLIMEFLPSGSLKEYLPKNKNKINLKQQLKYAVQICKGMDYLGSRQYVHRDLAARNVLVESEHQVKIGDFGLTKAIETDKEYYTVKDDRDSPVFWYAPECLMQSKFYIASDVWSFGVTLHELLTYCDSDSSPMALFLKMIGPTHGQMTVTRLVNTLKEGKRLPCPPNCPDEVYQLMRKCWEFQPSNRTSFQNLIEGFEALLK
Sequence of UniProt P25098 (whole entry, looked up): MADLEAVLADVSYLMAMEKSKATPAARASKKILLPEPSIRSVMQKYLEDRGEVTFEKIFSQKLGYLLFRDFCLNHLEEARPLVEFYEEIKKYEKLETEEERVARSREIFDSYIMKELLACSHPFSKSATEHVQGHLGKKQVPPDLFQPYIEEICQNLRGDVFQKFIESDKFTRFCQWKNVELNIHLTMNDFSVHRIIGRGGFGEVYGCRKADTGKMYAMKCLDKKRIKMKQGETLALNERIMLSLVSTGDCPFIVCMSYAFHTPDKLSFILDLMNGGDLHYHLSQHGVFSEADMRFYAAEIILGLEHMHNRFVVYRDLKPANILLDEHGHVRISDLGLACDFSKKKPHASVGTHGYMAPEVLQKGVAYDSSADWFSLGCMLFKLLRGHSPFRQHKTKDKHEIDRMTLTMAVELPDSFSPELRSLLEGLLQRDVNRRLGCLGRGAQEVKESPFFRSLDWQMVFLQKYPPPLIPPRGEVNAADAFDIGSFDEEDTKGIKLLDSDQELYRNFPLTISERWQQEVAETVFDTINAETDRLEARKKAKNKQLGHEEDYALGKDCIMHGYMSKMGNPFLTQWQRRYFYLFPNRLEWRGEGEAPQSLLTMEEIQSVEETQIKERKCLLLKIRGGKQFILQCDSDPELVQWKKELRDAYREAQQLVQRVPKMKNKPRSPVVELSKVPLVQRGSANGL
Sequence of UniProt Q9NQU5 (whole entry, looked up): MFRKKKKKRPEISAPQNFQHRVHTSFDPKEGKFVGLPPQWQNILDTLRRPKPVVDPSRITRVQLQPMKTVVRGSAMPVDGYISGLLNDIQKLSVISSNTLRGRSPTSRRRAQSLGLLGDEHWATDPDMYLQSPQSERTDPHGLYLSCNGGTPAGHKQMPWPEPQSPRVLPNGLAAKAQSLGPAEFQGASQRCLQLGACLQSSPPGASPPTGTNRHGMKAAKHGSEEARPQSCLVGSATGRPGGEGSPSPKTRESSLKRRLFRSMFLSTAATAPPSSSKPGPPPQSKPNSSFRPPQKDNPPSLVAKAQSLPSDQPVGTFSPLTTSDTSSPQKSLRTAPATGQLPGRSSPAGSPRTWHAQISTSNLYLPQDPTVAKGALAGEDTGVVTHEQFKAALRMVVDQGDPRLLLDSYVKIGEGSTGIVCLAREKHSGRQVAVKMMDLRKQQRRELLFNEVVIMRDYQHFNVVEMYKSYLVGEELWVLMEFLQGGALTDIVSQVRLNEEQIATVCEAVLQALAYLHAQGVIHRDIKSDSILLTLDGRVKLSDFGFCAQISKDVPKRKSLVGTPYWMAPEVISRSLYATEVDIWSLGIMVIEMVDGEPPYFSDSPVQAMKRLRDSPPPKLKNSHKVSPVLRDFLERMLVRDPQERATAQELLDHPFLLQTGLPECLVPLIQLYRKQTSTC
Sequence of UniProt Q15569 (whole entry, looked up): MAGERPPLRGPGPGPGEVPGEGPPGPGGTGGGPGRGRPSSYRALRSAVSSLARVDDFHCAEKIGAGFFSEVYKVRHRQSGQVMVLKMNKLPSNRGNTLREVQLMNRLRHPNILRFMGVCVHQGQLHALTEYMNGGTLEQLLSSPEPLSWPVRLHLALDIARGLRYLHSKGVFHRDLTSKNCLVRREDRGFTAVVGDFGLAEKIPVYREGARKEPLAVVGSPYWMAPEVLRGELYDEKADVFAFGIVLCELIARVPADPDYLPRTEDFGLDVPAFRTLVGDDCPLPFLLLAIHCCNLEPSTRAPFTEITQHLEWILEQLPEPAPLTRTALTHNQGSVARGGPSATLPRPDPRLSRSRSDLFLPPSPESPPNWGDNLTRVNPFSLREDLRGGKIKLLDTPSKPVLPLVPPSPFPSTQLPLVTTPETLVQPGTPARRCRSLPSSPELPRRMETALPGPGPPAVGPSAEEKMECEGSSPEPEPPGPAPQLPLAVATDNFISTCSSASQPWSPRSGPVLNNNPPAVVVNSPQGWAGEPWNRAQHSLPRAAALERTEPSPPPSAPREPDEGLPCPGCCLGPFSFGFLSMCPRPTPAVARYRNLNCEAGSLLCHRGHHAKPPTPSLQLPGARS
Sequence of UniProt P49840 (whole entry, looked up): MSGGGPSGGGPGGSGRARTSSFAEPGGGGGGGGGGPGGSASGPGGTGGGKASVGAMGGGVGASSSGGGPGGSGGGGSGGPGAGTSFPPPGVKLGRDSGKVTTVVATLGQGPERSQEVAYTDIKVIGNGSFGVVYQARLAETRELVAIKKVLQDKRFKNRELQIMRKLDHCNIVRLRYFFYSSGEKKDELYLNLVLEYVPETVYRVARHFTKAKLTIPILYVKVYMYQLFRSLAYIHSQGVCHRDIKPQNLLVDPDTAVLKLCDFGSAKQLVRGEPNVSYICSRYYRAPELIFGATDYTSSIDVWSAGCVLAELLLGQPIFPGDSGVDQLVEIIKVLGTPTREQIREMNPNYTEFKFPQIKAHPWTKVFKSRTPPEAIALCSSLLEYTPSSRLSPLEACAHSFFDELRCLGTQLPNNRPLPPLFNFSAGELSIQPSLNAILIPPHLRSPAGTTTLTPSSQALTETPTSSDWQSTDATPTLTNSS
Sequence of UniProt P43250 (whole entry, looked up): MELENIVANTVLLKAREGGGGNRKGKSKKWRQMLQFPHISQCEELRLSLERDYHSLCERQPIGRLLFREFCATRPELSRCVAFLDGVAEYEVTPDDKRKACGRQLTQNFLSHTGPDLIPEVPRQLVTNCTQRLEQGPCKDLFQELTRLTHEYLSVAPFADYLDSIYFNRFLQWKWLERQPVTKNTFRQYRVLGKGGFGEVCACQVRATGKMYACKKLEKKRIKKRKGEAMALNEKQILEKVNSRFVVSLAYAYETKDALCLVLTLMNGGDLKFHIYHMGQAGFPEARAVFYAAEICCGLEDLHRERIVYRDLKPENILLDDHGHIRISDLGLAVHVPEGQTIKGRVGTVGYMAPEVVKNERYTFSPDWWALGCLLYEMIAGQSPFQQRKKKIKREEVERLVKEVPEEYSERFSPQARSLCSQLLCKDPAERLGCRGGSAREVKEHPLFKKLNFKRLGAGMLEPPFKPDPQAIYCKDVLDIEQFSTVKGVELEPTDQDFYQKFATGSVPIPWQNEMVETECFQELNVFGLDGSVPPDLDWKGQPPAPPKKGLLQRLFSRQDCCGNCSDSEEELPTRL

Series 1
Structure (SMILES): CCN(CC)CCNC(=O)c1c(C)[nH]c(/C=C2\C(=O)Nc3ccc(F)cc32)c1C
Effect on: enzyme activity
Mode: inhibitor
Concentration: 0.5 µM
Relative to: control
It gave 94.7% for remaining activity (Beta-adrenergic receptor kinase 1 (GRK2, Homo sapiens, UniProt P25098)).
For Protein kinase C epsilon type (PRKCE, Homo sapiens, UniProt Q02156): remaining activity read 98%.
It gave 83.8% for remaining activity (Protein kinase C gamma type (PRKCG, Homo sapiens, UniProt P05129)).
The remaining activity was 74.7% (G protein-coupled receptor kinase 6 (GRK6, Homo sapiens, UniProt P43250)).
It gave 85.5% for remaining activity (Glycogen synthase kinase-3 alpha (GSK3A, Homo sapiens, UniProt P49840)).

Series 2
Compound: O=C(N1CCS(=O)(=O)CC1)N1C[C@H](c2ccc(OC(F)(F)F)cc2)C[C@H](c2nc(C3CC3)no2)C1
Effect on: cell-free assay
Technique: competition with immobilised ligand
Concentration: 1 µM
Receptor-type tyrosine-protein kinase FLT3 (FLT3, Homo sapiens, UniProt P36888, D835V/ITD) — remaining binding: 100%.
It gave 100% for remaining binding (Serine/threonine-protein kinase RIO1 (RIOK1, Homo sapiens, UniProt Q9BRS2)).
It gave 100% for remaining binding (Serine/threonine-protein kinase PAK 5 (PAK5, Homo sapiens, UniProt Q9P286)).
Receptor-type tyrosine-protein kinase FLT3 (FLT3, Homo sapiens, UniProt P36888, D835H) — remaining binding: 92%.
It gave 100% for remaining binding (G protein-coupled receptor kinase 4 (GRK4, Homo sapiens, UniProt P32298)).
For Receptor-type tyrosine-protein kinase FLT3 (FLT3, Homo sapiens, UniProt P36888, D835V): remaining binding read 100%.
For Epidermal growth factor receptor (EGFR, Homo sapiens, UniProt P00533, G719S): remaining binding read 99%.
Receptor-type tyrosine-protein kinase FLT3 (FLT3, Homo sapiens, UniProt P36888, ITD) — remaining binding: 100%.
Ribosomal protein S6 kinase alpha-3, N-terminal kinase domain (RPS6KA3, Homo sapiens, UniProt P51812) — remaining binding: 100%.
For Tyrosine-protein kinase JAK2, JH1 (JAK2, Homo sapiens, UniProt O60674): remaining binding read 75%.
It gave 88% for remaining binding (Tyrosine-protein kinase JAK1, JH1 (JAK1, Homo sapiens, UniProt P23458)).
The remaining binding was 100% (Serine/threonine-protein kinase PAK 6 (PAK6, Homo sapiens, UniProt Q9NQU5)).
Dual specificity testis-specific protein kinase 1 (TESK1, Homo sapiens, UniProt Q15569) — remaining binding: 100%.
The remaining binding was 100% (Dual specificity mitogen-activated protein kinase kinase 6 (MAP2K6, Homo sapiens, UniProt P52564)).

Series 3
Species: human
Sample: microsomes or S9
Concentration: 2 µM
Time: 0.5 h
Oc1cccc(-c2ncc(-c3ccccc3O)o2)c1 has a remaining compound of 3.13%.
With Cc1ccc(S(=O)(=O)N(C)c2ccccc2)s1 the remaining compound was 0.808%.
CC(C)C(=O)Nc1ccc(N2CCCCC2C)cc1 (stereo not shown) has a remaining compound of 48%.
For CC(C)(C)Nc1oc(-c2ccc(S(=O)(=O)N3CCOCC3)o2)nc1C#N, the remaining compound was 94.3%.

Series 4
Cell line: A-375
Concentration: 100 µM
Time: 60 h
With CCOc1nc2cccc(C(=O)O)c2n1Cc1ccc(-c2ccccc2-c2nnn[nH]2)cc1 the viability was 101%.
The viability of C1N2CN3CN1CN(C2)C3 is reported as 106%.
The viability of CCN1CCN(C(=O)N[C@@H](C(=O)N[C@@H]2C(=O)N3[C@@H]2SC(C)(C)[C@@H]3C(=O)O)c2ccccc2)C(=O)C1=O is reported as 104%.
O=C(CCCCCCC(=O)Nc1ccccc1)NO has a viability of 5.26%.

Single results of other studies
Under “patients with chronic gastritis TEAE”, CC(C)n1cnc(-c2ccc(F)cc2)c1-c1ncc(C(=O)Nc2ccc(N3CCN(C)CC3)cc2)[nH]1 is recorded as 0% (phase 2a clinical trial; patients with idiopathic pulmonary fibrosis; 60 mg once daily).
